Published values from different studies.
A part holds a random share of what one study measured. “And” joins repeats or separate records; there may be more than shown.

Set 1
Structure (SMILES): CCN1/C(=C/C=C2\CCCC(/C=C/C3=[N+](CC)c4ccccc4C3(C)C)=C2NCCCCCCCCN2CCC(Nc3nc4ccccc4n3Cc3ccc(F)cc3)CC2)C(C)(C)c2ccccc21
Cell line: U-87 MG
Concentration: concentration not given
Baseline: DMSO
It gave 1.8 for “log2 fold change” (item: MAFK mRNA).
For item: KCTD4 mRNA: “log2 fold change” read -2.98.
For item: SHROOM2 mRNA: “log2 fold change” read -6.12.
item: ZNF770 mRNA — “log2 fold change”: 0.957.
It gave -3.82 for “log2 fold change” (item: KRTAP1-5).
The “log2 fold change” was -2.58 (item: GAP43 mRNA).
The “log2 fold change” was 2.94 (item: IL24 mRNA).
It gave -1.02 for “log2 fold change” (item: ACTN4 mRNA).
For item: GASK1B mRNA: “log2 fold change” read -4.41.
item: HPS3 mRNA — “log2 fold change”: -0.825.
The “log2 fold change” was -1.26 (item: EEF2K mRNA).

Set 2
Organism: Arabidopsis thaliana
Strain: Col-0
Concentration: 100 µg/mL
Setting: seed germination, single repetition
For `CN1C(=O)C(O)(C(=O)O)Oc2cc(F)ccc21` (stereo not shown), the hypocotyl length was 1.35 cm and 1.34 cm and 1.31 cm and 1.33 cm.
For `CC(C)=CCN1C(=O)C(O)(C(=O)O)Oc2cc(F)ccc21` (stereo not shown), the hypocotyl length was 1.41 cm and 1.45 cm.
For `COc1ccc2c(c1)OC(O)(C(=O)O)C(=O)N2Cc1ccccc1` (stereo not shown), the hypocotyl length was 0.95 cm and 1.02 cm and 1.05 cm and 1 cm and 0.91 cm.
For `O=C(O)C1(O)Oc2cc(Cl)ccc2N(Cc2ccccc2)C1=O` (stereo not shown), the hypocotyl length was 1.26 cm and 1.23 cm and 1.25 cm and 1.22 cm.
`Cc1ccc2c(c1)OC(O)(C(=O)O)C(=O)N2Cc1ccccc1` (stereo not shown) has a hypocotyl length of 1.04 cm and 1.06 cm and 1.11 cm and 1.13 cm and 1.1 cm.

Set 3
SMILES: C[C@@H]1CN(c2ccc(-c3cc(C(=O)NCCOCCOCCOCCOCCOCCOCCNC(=O)/C=C/c4[nH]cc(C(=O)N[C@@H](CC(N)=O)c5ccc(F)c(Cl)c5)c4-c4ccc(Cl)cc4F)ccc3F)cc2NC(=O)c2ccc(F)cc2C(F)(F)F)C[C@H](C)N1C
Effect on: thermal unfolding
Technique: differential scanning fluorimetry
Concentration: 5.5 µM
Direction: higher = more unfolded
DCAF1: DDB1- and CUL4-associated factor 1 (DCAF1, Homo sapiens, UniProt Q9Y4B6)
Sequence of UniProt Q9Y4B6 (whole entry, looked up): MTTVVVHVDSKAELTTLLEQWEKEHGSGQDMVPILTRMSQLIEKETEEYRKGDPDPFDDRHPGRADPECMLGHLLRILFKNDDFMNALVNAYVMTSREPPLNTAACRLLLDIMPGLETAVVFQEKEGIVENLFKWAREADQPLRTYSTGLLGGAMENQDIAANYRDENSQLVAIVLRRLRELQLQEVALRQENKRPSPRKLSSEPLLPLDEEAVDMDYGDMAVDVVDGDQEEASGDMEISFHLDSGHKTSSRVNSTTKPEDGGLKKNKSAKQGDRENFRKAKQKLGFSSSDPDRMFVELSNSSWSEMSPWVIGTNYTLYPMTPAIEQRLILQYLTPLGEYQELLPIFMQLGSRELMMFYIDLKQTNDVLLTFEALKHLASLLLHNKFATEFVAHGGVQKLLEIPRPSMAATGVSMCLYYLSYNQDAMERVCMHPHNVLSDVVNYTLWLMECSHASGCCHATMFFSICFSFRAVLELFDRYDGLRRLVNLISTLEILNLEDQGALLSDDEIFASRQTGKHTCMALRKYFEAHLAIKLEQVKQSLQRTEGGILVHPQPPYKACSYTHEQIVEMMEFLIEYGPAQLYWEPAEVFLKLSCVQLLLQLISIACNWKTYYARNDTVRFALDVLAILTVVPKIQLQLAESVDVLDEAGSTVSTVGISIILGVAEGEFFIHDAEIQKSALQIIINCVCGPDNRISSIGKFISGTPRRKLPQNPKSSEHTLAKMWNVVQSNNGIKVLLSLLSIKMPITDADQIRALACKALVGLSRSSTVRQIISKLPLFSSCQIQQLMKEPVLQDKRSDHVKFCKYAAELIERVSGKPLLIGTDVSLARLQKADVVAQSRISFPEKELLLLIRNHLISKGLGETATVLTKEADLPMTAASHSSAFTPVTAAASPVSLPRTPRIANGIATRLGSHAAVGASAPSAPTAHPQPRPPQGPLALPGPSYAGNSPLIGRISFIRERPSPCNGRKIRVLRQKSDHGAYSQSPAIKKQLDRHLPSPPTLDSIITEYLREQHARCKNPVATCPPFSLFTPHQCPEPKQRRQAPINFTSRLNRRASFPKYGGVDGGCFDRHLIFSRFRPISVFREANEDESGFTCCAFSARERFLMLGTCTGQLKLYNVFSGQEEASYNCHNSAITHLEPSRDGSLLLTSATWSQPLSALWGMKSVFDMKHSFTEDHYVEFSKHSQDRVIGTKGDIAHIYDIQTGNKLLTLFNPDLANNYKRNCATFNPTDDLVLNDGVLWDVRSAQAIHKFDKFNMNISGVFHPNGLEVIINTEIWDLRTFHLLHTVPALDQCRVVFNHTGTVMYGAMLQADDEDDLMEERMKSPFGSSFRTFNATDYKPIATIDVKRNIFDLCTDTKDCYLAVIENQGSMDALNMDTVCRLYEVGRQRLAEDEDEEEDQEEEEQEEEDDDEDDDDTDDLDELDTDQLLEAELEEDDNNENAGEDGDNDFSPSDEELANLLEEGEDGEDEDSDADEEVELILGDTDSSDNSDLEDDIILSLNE
WDR5: WD repeat-containing protein 5 (WDR5, Homo sapiens, UniProt P61964)
The “SYPRO Orange fluorescence” was 36700 a.u. (DCAF1; 84.21 °C).
For WDR5; 50.8 °C: “SYPRO Orange fluorescence” read 16700 a.u.
It gave 30700 a.u. for “SYPRO Orange fluorescence” (DCAF1; 92.21 °C).
For DCAF1; 78.81 °C: “SYPRO Orange fluorescence” read 40700 a.u.
For DCAF1; 57.41 °C: “SYPRO Orange fluorescence” read 36000 a.u.
The “SYPRO Orange fluorescence” was 16800 a.u. (WDR5; 51.4 °C).
For DCAF1; 90.01 °C: “SYPRO Orange fluorescence” read 32300 a.u.

Set 4
SMILES: Cc1ccc(O)c(C)c1-c1cnc2[nH]c(-c3cnc(N4CCC(CN5CCN(c6ccc(NC7CCC(=O)NC7=O)c(F)c6)CC5)CC4)nc3)cc2c1C#N (racemic)
Cell line: HCC1569
Technique: in-cell western
Item: CDK1 phospho-Thr14
It gave 7.72% and 9.75% for “pCDK1 (Thr14) level” (1.37 nM).
The “pCDK1 (Thr14) level” was 106% and 108% (1000 nM).
For 333.33 nM: “pCDK1 (Thr14) level” read 90.9% and 97.8%.
The “pCDK1 (Thr14) level” was 31.5% and 23.6% (37.04 nM).
4.12 nM — “pCDK1 (Thr14) level”: 19.1% and 20.5%.
The “pCDK1 (Thr14) level” was 56.8% and 65.6% (111.11 nM).
For 0.457 nM: “pCDK1 (Thr14) level” read 10.5% and 11.1%.
It gave 15.7% and 29.4% for “pCDK1 (Thr14) level” (12.35 nM).

For quick reference, copied from above (set 1):
It gave -1.02 for “log2 fold change” (item: ACTN4 mRNA).
item: ZNF770 mRNA — “log2 fold change”: 0.957.
For item: GASK1B mRNA: “log2 fold change” read -4.41.
The “log2 fold change” was -2.58 (item: GAP43 mRNA).
